Published values from different studies.
A part holds a random share of what one study measured.
Sequence of UniProt Q8WTQ7 (whole entry, looked up): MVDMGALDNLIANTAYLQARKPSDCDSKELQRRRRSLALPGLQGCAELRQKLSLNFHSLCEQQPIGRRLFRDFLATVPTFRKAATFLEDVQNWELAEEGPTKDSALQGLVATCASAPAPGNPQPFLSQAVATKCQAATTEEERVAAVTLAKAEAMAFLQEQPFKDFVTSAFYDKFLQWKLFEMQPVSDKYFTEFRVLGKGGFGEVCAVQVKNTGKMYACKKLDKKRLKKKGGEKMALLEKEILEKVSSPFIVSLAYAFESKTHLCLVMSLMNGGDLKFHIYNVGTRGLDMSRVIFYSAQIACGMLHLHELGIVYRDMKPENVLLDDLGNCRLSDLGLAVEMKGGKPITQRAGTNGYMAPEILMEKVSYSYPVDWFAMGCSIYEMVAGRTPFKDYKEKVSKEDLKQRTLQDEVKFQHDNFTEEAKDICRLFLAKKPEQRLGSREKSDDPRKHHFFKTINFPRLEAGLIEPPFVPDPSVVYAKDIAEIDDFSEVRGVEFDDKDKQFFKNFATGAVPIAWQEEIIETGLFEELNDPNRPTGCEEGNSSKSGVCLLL

Series 1 — method: competition protein-binding microarray; form: double-stranded DNA, one strand shown; matrix: in vitro; concentration: 2 µM; with: Pho4 competitor, 0.05 µM; reading: higher = stronger binding
Target: Centromere-binding protein 1, full length, His-tagged (CBF1, Saccharomyces cerevisiae, UniProt P17106, residues 1-351)
Sequence of UniProt P17106 (whole entry, looked up): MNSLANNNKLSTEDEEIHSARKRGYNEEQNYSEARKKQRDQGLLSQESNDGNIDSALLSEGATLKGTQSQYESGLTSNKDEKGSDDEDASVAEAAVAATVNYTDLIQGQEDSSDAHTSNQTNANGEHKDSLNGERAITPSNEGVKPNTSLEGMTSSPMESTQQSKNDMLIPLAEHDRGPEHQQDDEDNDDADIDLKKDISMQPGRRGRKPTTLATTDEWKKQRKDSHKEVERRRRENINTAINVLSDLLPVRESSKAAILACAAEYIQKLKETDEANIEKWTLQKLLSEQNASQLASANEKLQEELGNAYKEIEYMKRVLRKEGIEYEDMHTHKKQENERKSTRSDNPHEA
Setting: whole 60-bp probe, lowest competitor level
| Strand | fluorescence intensity [a.u.] |
| --- | --- |
| GTCTTGTCTCATTGGATTGTGGGTGTCCCCACTTCAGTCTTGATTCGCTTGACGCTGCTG | 99.5 |
| GTCTTGTCTCATTGCCACGTGGGTGTCCCCACTTCAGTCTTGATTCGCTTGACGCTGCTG | 741 |
| ACGACCAAGTTCATCTAAAATTAACAGTGTTTCTGTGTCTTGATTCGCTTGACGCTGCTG | 83.1 |
| GTATTATTATTCAAACGCGTGGTGATAGTCCCTTGAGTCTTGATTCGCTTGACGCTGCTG | 106 |
| AAATTACTAAGTTTTCACGTGAGCTACCCCGTATGAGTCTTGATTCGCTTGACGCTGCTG | 1180 |
| CTTCTGTAAATTTGCCCGGTGGGTGGACGCGCCCCGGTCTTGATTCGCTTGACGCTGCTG | 68.4 |
| AAAGCGGTAATTTGTGATGTGGGTGCAGATATCTATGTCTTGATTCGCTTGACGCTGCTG | 74.7 |
| TGCGCAACAACTTGGTCCGTGGGTGTATGTCTAGAAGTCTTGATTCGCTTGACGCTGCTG | 65.1 |

Series 2 — method: protein binding microarray; form: double-stranded DNA, one strand shown; matrix: in vitro; concentration: not given; baseline: not given; reading: higher = stronger binding
Target: Histone acetyltransferase KAT6A, winged helix 2, GST fusion (KAT6A, Homo sapiens, UniProt Q92794, residues 85-181)
Setting: 8-mer, flanks averaged, mean of 2 arrays, mostly near background
Target sequence (chain): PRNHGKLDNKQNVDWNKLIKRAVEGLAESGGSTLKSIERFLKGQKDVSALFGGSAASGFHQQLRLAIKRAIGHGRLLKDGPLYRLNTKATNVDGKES
| Strand | E-score |
| --- | --- |
| CGAAGCCC | 0.0175 |
| ATATGGAC | -0.157 |
| ACGGAATC | -0.0879 |
| CAGATTCC | 0.0339 |
| ATAAATCA | 0.104 |
| GTATACAA | 0.000435 |
| TACATGTA | -0.185 |
| GTAGACGA | -0.0349 |

Mixed results
| SMILES | target or system | effect on | method | matrix | concentration | measurement | result |
| --- | --- | --- | --- | --- | --- | --- | --- |
| O=C1CCc2cc(Nc3cc(OC4CCOCC4)c([N+](=O)[O-])cc3Cl)ccc2N1 | GRK7 (Homo sapiens, UniProt Q8WTQ7) | cell-free assay | competition with immobilised ligand | – | 1 µM | remaining binding | 100% |
| CCC[C@H]1NC(=O)CSC[C@@H](C(=O)OCC)N(C)C(=O)[C@H](CC(C)C)NC(=O)[C@@H](C)N(C)C(=O)[C@H](CC(C)C)NC(=O)[C@H](C)N(C)C(=O)[C@@H]2CCCN2C(=O)[C@H](CC(C)C)NC(=O)CN(C)C1=O | – | – | – | hydrocarbon/water | – | logD | -0.307 |

Repeated from above (series 1):
| Strand | fluorescence intensity [a.u.] |
| --- | --- |
| CTTCTGTAAATTTGCCCGGTGGGTGGACGCGCCCCGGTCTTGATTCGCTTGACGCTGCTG | 68.4 |
| AAAGCGGTAATTTGTGATGTGGGTGCAGATATCTATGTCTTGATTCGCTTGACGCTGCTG | 74.7 |
| TGCGCAACAACTTGGTCCGTGGGTGTATGTCTAGAAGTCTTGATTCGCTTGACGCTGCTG | 65.1 |
